Measured values from different studies.
Parts stem from different laboratories: compare values within a part only.

Set 1
Target: RING finger protein unkempt homolog, zinc fingers 1-6, GST-SBP tag (UNK, Homo sapiens, UniProt Q9C0B0, residues 30-357)
Chain of UniProt Q9C0B0 (30-357, looked up): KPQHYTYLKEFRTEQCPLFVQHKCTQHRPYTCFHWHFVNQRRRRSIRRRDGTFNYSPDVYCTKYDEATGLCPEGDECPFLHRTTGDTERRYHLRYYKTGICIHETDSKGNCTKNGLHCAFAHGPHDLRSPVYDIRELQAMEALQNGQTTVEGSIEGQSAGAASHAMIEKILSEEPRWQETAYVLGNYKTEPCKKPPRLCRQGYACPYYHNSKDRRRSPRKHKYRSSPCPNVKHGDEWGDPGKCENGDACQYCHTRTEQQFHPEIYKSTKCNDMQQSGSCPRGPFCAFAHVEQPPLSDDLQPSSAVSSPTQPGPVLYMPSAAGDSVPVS
Technique: RNA Bind-n-Seq
Molecule type: RNA
Medium: in vitro
Tested at: not given
Notes: RNA with constant flanks, human-mouse chimeric sites, ends assumed
Relative to: input RNA pool
Reading: higher = stronger binding
All sequences stand within: GGGAGUUCUACAGUCCGACGAUC … CAACAGAGGAUUGAGCAUCA
The bound/input enrichment of `CUGUGACUGAUGGCAGCUACCUGAGUGGCAGCUGAAGUUGACUCCCUCUCCUUGCCUGAACCCCCCCCCACUGCCCCCCCAUCCCCCGCAGAAUUCCGAGAUGUUGCCUCUGCACGGUUC` is reported as 0.44 ratio.
For `AUCAAAUACUUUGGGGACAUCAUUAGUGUGGGACAGAGACUGUUGCAAGGGGCCCGGAUCUUAGGGAUUCCAGUUAUCAUAACGGAACAAUACCCCAAAGGACUUGGCAGCACCGUUCAA`, the bound/input enrichment was 0.251 ratio.
For `CUCAGAGAUGUGGCAUAUCAAUAUGUGAAAAAGGGGUCUCGUAUAUUUGUGGAAGGGAAAGUGGACUAUGGCGAGUACAUGGAUAAAAACAAUGUGAGGCGGCAAGCAACAACAAUCAUA`, the bound/input enrichment was 0.419 ratio.
The bound/input enrichment of `UAAGUCCAUUUGUAAGCCUUCGCUCAUAAAGUUUUAAAUUCUGGACCAAUAGUGUUUGUUUCCUGAUUUUUGUAUUCAAUACUUUGCCUAGUAUGUAACUCACUCUUACUGAUAAUAAAA` is reported as 0.797 ratio.
For `CACACACUCUUCUGCGGCACCCUCAUUUUGCAGGCCCGGGCCUAUGUGGGACCGCACGUCCUGGCAGUGGUGACCCGCACAGGGUUCUGCACAGCCAAAGGGGGCCUGGUGAGCUCCAUC`, the bound/input enrichment was 0.109 ratio.
`UGUGCAUAUGAUGCUUGAGAUGGUUUUUGCAGAUGCAGAAAUCGCUGCAAGGUCAUUACAAUAGAUAAAAGUGGUAUUUUAAACCUUUGAAAUAAAUGGAUGUAACUGUACCUUGGUACA` gave a bound/input enrichment of 0.386 ratio.
For `GACUUUGGGACUGGUCCUCGUAAUGCAGCCUUCUAUAGCCCUCAUGGACAUAUAUUAGUGCUGGCUGGAUUUGGAAAUCUUCGAGGACAAAUGGAAGUAUGGGAUGUUAAAAACUACAAG`, the bound/input enrichment was 0.369 ratio.
`UAACCACAUCAAGAUGGUUGGGAAGCUGAAGCAGAACUUACUCUUGGCGUGUCUGGUGAUUAGUUCUGUGACCGUGUUUUACCUGGGCCAGCAUGCCAUGGAAUGCCAUCACCGAAUAGA` has a bound/input enrichment of 0.196 ratio.
`GAUCAUGAACCACCAUCAGAAAUGAAGGAUGAGACUACCAGACGAGCCCAAAACCGCGCGCUACAGAAAAGUAAACUUAACCUUGCAGAGUUCCUUAAUGAAGAUACAAGUUAAGAGAGC` gave a bound/input enrichment of 0.144 ratio.
The bound/input enrichment of `CACAGAGCAGCACCUACCCCCUCCUCCUUUCCACACCUGCAAACUCUUUUGCCUGGGCUGAAUAUUUAGUGUAAUUAACAUCGCAGCUUGAGGGCUCCUGUGGCAAAUUCCCGGAUUAAA` is reported as 1.63 ratio.
For `AGCACAACCCCAGCAAAGCUAAGAAAUCCUUGUACAAGUGAACAGAACUGCACCAGCCCAUUUAGCUACAAAAAUGUGCUCAGUCUUACUGACAGAGGAGAGUUUUUCAAUGAACUUGUU`, the bound/input enrichment was 1.72 ratio.

Set 2
Target: Histone acetyltransferase KAT6A, winged helix 1, GST fusion (KAT6A, Homo sapiens, UniProt Q92794, residues 1-85)
Technique: protein binding microarray
Molecule type: double-stranded DNA, one strand shown
Medium: in vitro
Tested at: not given
Notes: 8-mer, flanks averaged, mean of 2 arrays, mostly near background
Relative to: not given
Reading: higher = stronger binding
Residues (chain): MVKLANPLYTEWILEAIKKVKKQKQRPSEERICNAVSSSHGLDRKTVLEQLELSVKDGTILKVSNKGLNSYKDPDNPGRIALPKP
The E-score of `AGTTTCGG` is reported as 0.0224.
The E-score of `ATTTCGGC` is reported as 0.154.
For `CCTTATGC`, the E-score was -0.0809.
`CTCGTAAA` has an E-score of 0.0078.
With `AATAGTCA` the E-score was -0.207.
The E-score of `AACGATTC` is reported as -0.0833.
`CGCTCAGC` gave an E-score of 0.295.
`ACCGTGCA` gave an E-score of -0.0408.
For `AGCACCTG`, the E-score was -0.278.
The E-score of `CGGCAGAC` is reported as 0.248.
With `CCTTGCAG` the E-score was -0.0537.
`ATAGCAAC` has an E-score of -0.141.
`AGATTAGC` gave an E-score of -0.0942.
With `ACAGCAAA` the E-score was 0.0126.
`CACACCTG` gave an E-score of -0.202.
`ACTAGGCC` has an E-score of -0.0645.
`AGAGCCTA` has an E-score of -0.171.

Set 3
Target: Ras GTPase-activating protein-binding protein 1, full length (G3BP1, Homo sapiens, UniProt Q13283)
Chain of UniProt Q13283 (whole entry, looked up): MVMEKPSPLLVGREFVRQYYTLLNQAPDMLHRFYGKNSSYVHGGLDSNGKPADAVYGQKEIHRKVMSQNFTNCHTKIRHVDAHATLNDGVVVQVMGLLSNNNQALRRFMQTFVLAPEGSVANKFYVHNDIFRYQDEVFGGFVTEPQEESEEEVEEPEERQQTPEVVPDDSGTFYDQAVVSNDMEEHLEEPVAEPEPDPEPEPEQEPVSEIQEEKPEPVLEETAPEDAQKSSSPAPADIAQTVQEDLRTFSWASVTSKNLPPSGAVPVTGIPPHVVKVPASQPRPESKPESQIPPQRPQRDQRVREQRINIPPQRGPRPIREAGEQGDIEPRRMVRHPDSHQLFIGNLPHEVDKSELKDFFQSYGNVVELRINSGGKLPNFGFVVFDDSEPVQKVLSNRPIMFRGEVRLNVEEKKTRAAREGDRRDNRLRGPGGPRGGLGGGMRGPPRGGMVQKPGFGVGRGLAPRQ
Technique: RNA Bind-n-Seq
Molecule type: RNA
Medium: in vitro
Tested at: 200 nM
Notes: whole 134-nt RNA, ends assumed
Together with: 150 mM LiCl
Relative to: input library
Reading: higher = stronger binding
All molecules: 7-deaza-guanosine replaces G
All sequences stand within: GGGAGUUCUACAGUCCGACGAUC … UGGAAUUCUCGGGUGUCAAGG
`CAAGUCCUGUGCUACACAUCGUAUGUACCGAAUCGGGUUUUGGUUUUGGUUUUGGAAAGUAUUAUGUUACGCCGUUCGGAUCUGCACUUC` has a log2 enrichment of -0.742.
`UCAAGUCCUGUGCUACACAUCGUAUGUACCGAAUCGGGAAAGGAAAGGAAAGGGGAAAGUAUUAUGUUACGCCGUUCGGAUCUGCACUUC` has a log2 enrichment of -0.572.
With `CAAGUCCUGUGCUACACAUCGUAUGUACCGAAUCGGGGAAAGGGGAGGGGAGGGGAAAGUAUUAUGUUACGCCGUUCGGAUCUGCACUUC` the log2 enrichment was 0.401.
`GCAGGAAGUAAAAACAAAUGGAAAUGCUUCGGAUAGUGGCAGGGGUGGGGGUUGCUAAGGAAAGGGUGGGAUGGAAAUGGGUAAAGAGUU` gave a log2 enrichment of 0.224.
With `CACAGACAACACGCACCCACACAGACACAGAGGGAAGGGGUUGGGAUGGGGACAGGGUGCACAGCAGGGCGGGGUAGGACCCUAGCCCCU` the log2 enrichment was -0.556.
The log2 enrichment of `CCUCAAGUCCUGUGCUACACAUCGUAUGUACCGAAUCGGAGGUUUUUGGAGGAAAGUAUUAUGUUACGCCGUUCGGAUCUGCACUUCCAG` is reported as -0.199.
The log2 enrichment of `UGUUGGAGGGACGAUGGUCCGCUCCGGGCAGGACCCUUACGCCCGCAACAAGUUCAACCAGGUGGAGAGUGAUAAGCUUCGAAUGGACAG` is reported as -2.74.
With `UCCUGUGCUACACAUCGUAUGUACCGAAUCGGGUUUUUUGGUUUUUUGGGGUUUUUUGGGAAAGUAUUAUGUUACGCCGUUCGGAUCUGC` the log2 enrichment was 0.336.
For `UGGCCCUGGUGGCAUGCGGGGAGGAAGAGGUCGCCUCAUGGAUCGUGGUGGUCCCGGUGGAAUGUUCAGAGGUGGCCGUGGUGGAGACAG`, the log2 enrichment was 0.741.
`ACCAUGCAGGUGGGCAUCUUUGGGAAGUGGGGCAAGGGGGGGAUAGGGAGGGGGGUAAGACUUUGGGAACAGGUGGUCCCAGGUCGUUUC` has a log2 enrichment of 0.344.
For `UCCUGUGCUACACAUCGUAUGUACCGAAUCGGCCCCCCGGGCCCCCCGGGCCCCCCGGGAAAGUAUUAUGUUACGCCGUUCGGAUCUGCA`, the log2 enrichment was -1.39.

Set 4
Target: RNA binding protein fox-1 homolog 2, RRM domain, GST-SBP tag (RBFOX2, Homo sapiens, UniProt O43251-10, residues 100-194)
Technique: RNA Bind-n-Seq
Molecule type: RNA
Medium: in vitro
Tested at: 365 nM
Notes: natural RNA segment, single round, ends assumed
Relative to: no-protein control
Reading: higher = stronger binding
All sequences stand within: GGGAGUUCUACAGUCCGACGAUC … UGGAAUUCUCGGGUGCCAA
Target sequence (chain): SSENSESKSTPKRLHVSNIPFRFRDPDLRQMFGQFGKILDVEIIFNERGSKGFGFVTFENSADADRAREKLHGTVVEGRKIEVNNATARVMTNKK
`AGAAGUCCCACAUGGAAGACGCUGUUCCAGGAUCUUUACCUUUCCAAAGGAUGCAUACAGGAUAUUUUGGAGCAUCAUCCUCGAAGAAAAGUCAGUUAAACCAUUUAGUU` — result for “RBNS enrichment (R)”: 0.709.
`UGCCUCCCUUCCUCCGCUCCCCUUUCCCAUCACCCCUUCCCCAUUUCCUCUUCCUUCUCUACUCAUGCCAGAUUUUGGGAUUACAAAUAGAAGCUUCUUGCUCCUGUUUA` — result for “RBNS enrichment (R)”: 0.964.
`UGGAUUUGGAAUAGAUUACAUAGGAGUAUGAAGUAUGCUGUAAAUAAAAGUACAAGCCAGUGCUUUGUCUUAGUAGUUUUAAGAAAUUAAAGCAAACAGACUUAAGUUUC`: “RBNS enrichment (R)” 2.8.
`GAUCCUUGCCCAGCGGUGGGAGCUGGGAGACAGUGCAUGGGAGGGGCUCCCUGGCAUGCCUGCCCUAGAAUUGUUAUGUUGGGCAUCACAGUCAUGAACUUUUGUUUUUC` — result for “RBNS enrichment (R)”: 3.65.
`AAAAGCCAUGGCCCAGAGAAUUGGGCCAGUAGAACCUAAGCCACACCUGAGGCCAGCUCUGGUCAGUCUCUGAUGGUCCAUUGGGCUGGCUCAGCACAUUGACAUCACUA` — result for “RBNS enrichment (R)”: 0.213.
`UAGUUUCACAAUUACGAGUGAAAAAUCAUGUAAUUAUCUGUAAAUAUGUAGCUAACAAAUUGACCUAGUUUCUGUACUUUUUUGGUUUUGUACUAAAGUUUAUAGGUCUG`: “RBNS enrichment (R)” 0.48.
`ACAGCUUGCCUUUUUAAUGUUAGUCACAAUGUUUUUGUGGUUUGAAGUUUAGUUUAAUGUUAGUGCAGUGACAGGAAAUACACAUUAUGCUGAUGUUGAUGACAGAAUUU` — result for “RBNS enrichment (R)”: 1.03.
`GAAUCAGAUAGUGUGUUGUUUAGGGGUUAAUUGUGUCUAUAUCUUUCAAAAACUUUUAUAUUAUGUAUUAUAAGAAGUUACAGUAGUACCAUUUUGAUUAGUCUGAAUGU` — result for “RBNS enrichment (R)”: 0.779.
`ACCCUCGAGCUACCAGCCAGGGCUCUAAGUUGCUCUCGUGAUCUUAGUUAGAAAUACAGGCUACAGUGUUUGGUCAGAAUUUAUUCGAAUGUCUUUAUUUUUAAUACCAA` — result for “RBNS enrichment (R)”: 0.586.
Under “RBNS enrichment (R)”, `AAACAAGGCUAUCUUUGGUCAUAUUCUCUGCUCUGGAAUUUCUGGGCUAGUCUUUCCUGAAUUCUAAUUUUGUUGCUCUGGAAGUGUUAACUGUGAUCCAGUACCUGUAA` is recorded as 0.451.
`UCCUGGAACCAAGCAUCCACGGAUACUGAGGGGUGACAUUUCAUGAAGUGUAGAUCAUUGUAUUCAGAGAUUGUAAAUGAAAAAAAUAUAGAAACUAUUUAGUUUUGGUA`: “RBNS enrichment (R)” 0.429.
`ACGGGGAACGCACCAUUUCUGAAACUAUCGAGCGGCUACAGCAGCUCAAAGAGUUCCGCAGCAAACAGGCAGAAGAAGAAUUUUAAUGAAAAAAUUACCCAGAUUGGCUC`: “RBNS enrichment (R)” 0.258.

A few entries again (set 1):
`UGUGCAUAUGAUGCUUGAGAUGGUUUUUGCAGAUGCAGAAAUCGCUGCAAGGUCAUUACAAUAGAUAAAAGUGGUAUUUUAAACCUUUGAAAUAAAUGGAUGUAACUGUACCUUGGUACA` gave a bound/input enrichment of 0.386 ratio.
`UAACCACAUCAAGAUGGUUGGGAAGCUGAAGCAGAACUUACUCUUGGCGUGUCUGGUGAUUAGUUCUGUGACCGUGUUUUACCUGGGCCAGCAUGCCAUGGAAUGCCAUCACCGAAUAGA` has a bound/input enrichment of 0.196 ratio.
For `CUCAGAGAUGUGGCAUAUCAAUAUGUGAAAAAGGGGUCUCGUAUAUUUGUGGAAGGGAAAGUGGACUAUGGCGAGUACAUGGAUAAAAACAAUGUGAGGCGGCAAGCAACAACAAUCAUA`, the bound/input enrichment was 0.419 ratio.
`GAUCAUGAACCACCAUCAGAAAUGAAGGAUGAGACUACCAGACGAGCCCAAAACCGCGCGCUACAGAAAAGUAAACUUAACCUUGCAGAGUUCCUUAAUGAAGAUACAAGUUAAGAGAGC` gave a bound/input enrichment of 0.144 ratio.
The bound/input enrichment of `CUGUGACUGAUGGCAGCUACCUGAGUGGCAGCUGAAGUUGACUCCCUCUCCUUGCCUGAACCCCCCCCCACUGCCCCCCCAUCCCCCGCAGAAUUCCGAGAUGUUGCCUCUGCACGGUUC` is reported as 0.44 ratio.
For `CACACACUCUUCUGCGGCACCCUCAUUUUGCAGGCCCGGGCCUAUGUGGGACCGCACGUCCUGGCAGUGGUGACCCGCACAGGGUUCUGCACAGCCAAAGGGGGCCUGGUGAGCUCCAUC`, the bound/input enrichment was 0.109 ratio.
For `GACUUUGGGACUGGUCCUCGUAAUGCAGCCUUCUAUAGCCCUCAUGGACAUAUAUUAGUGCUGGCUGGAUUUGGAAAUCUUCGAGGACAAAUGGAAGUAUGGGAUGUUAAAAACUACAAG`, the bound/input enrichment was 0.369 ratio.
The bound/input enrichment of `UAAGUCCAUUUGUAAGCCUUCGCUCAUAAAGUUUUAAAUUCUGGACCAAUAGUGUUUGUUUCCUGAUUUUUGUAUUCAAUACUUUGCCUAGUAUGUAACUCACUCUUACUGAUAAUAAAA` is reported as 0.797 ratio.
